Published values gathered from unrelated publications.
Lines come from different studies, so protocols differ. Several values in a cell are separate wells, animals, samples, runs or records. ± gives the spread as reported.

N#C[C@@H]1CC(F)(F)CN1C(=O)CNC(=O)c1ccnc2c(NC(=O)[C@H](CCCCNC(=O)CCOCCOCCOCCOCCOCCOCCNC(=O)CN3CCN(CC(=O)[O-])CCN(CC(=O)[O-])CCN(CC(=O)[O-])CC3)NC(=O)CCCc3ccc(I)cc3)cccc12.[177Lu+3] — tracer uptake (U-87 MG tumour model; host not given, liver; 72 h, tumour-bearing): 1.81 %ID/g
CC(C)OCCOCc1ccc(OCC(O)CN(N=O)C(C)C)cc1 (stereo not shown) — mutagenicity (Salmonella typhimurium, Escherichia coli; enhanced Ames test; TA100, TA1535, WP2 uvrA; concentration not given, 30 min pre-incubation, 37 °C, 30% uninduced hamster S9): negative
COc1cccc(OC)c1-c1cc(C(=O)NC2(C(=O)O)C3CC4CC(C3)CC2C4)nn1-c1ccc(C(=O)N(C)CCOCCOCCN(C)C(=O)[C@H](CCCCNC(=O)[C@H](CC(C)C)NC(=O)C2OC2C(=O)O)NC(=O)CN2CCN(CC(=O)[O-])CCN(CC(=O)[O-])CCN(CC(=O)[O-])CC2)cc1C(C)C.[177Lu+3] (mixture of isomers) — tracer uptake (HT-29 tumour model; host not given, bone; 7 days, tumour-bearing): 0.002 %ID/g
Cl.NCc1ccc2c(c1)CN(C1CCC(=O)NC1=O)C2=O (stereo not shown) — minimum viability (H929; concentration not given, 72 h): 98% and 98.4%
COc1cccc(OC)c1-c1cc(C(=O)NC2(C(=O)O)C3CC4CC(C3)CC2C4)nn1-c1ccc(C(=O)N(C)CCCN(C)C(=O)[C@H](CCCCNC(=O)[C@H](CC(C)C)NC(=O)C2OC2C(=O)O)NC(=O)CN2CCN(CC(=O)[O-])CCN(CC(=O)[O-])CCN(CC(=O)[O-])CC2)cc1C(C)C.[177Lu+3] (mixture of isomers) — tracer uptake (HT-29 tumour model; host not given, bone; 24 h, tumour-bearing): 0.09 %ID/g
N#C[C@@H]1CC(F)(F)CN1C(=O)CNC(=O)c1ccnc2c(NC(=O)[C@@H](N)CCCCNC(=O)CCOCCOCCOCCOCCOCCOCCNC(=O)CN3CCN(CC(=O)[O-])CCN(CC(=O)[O-])CCN(CC(=O)[O-])CC3)cccc12.[177Lu+3] — tracer uptake (U-87 MG tumour model; host not given, pancreas; 1 h, tumour-bearing): 0.37 %ID/g
N#C[C@@H]1CCCN1C(=O)CNC(=O)c1ccnc2ccc(OCCCN3CCN(C(=O)CCc4ccc(O)c(CN5CCN6CC(=O)[O][Al-]([18F])([O]C(=O)C5)[O]c5ccc(CCC(=O)N7CCN(CCCOc8ccc9nccc(C(=O)NCC(=O)N%10CCC[C@H]%10C#N)c9c8)CC7)cc5C6)c4)CC3)cc12 (stereo partly shown) — tracer uptake (U-87 MG tumour model; host not given, liver; 1 h, tumour-bearing): 9.79 %ID/g
COC(=O)Nc1nc2cc(C(O)c3ccc(F)cc3)ccc2[nH]1 (stereo not shown) — revertants (Salmonella typhimurium; Ames preincubation test; TA1537; 109.4 µg/plate, without S9): 12 revertants/plate
CCN(CC)CC#CCNc1ccnc2cc(Cl)ccc12 — revertants (Salmonella typhimurium; mini-Ames test; TA102; 1000.0 µg/well, without S9): 45 revertants/well and 53 revertants/well
Ic1cc2nc(c1)CNCc1cc(I)cc(n1)CNC2.[Cu+2] — cathodic peak potential (Cu(II)/Cu(I) redox couple; cyclic voltammetry; DMF; added: TBAP; relative to: Fc/Fc+): -737 mV
CNC(=O)C1CCCN(C(=O)C2CC3CCC2N3C(=O)[C@@H]2C[C@@H](O)CN2C(=O)NCc2cccc(Cl)c2F)C1 (mixture of isomers) — remaining activity (CYP3A4 (human); inhibitor, time-dependent inhibition; 16.7 µM, preincubated without NADPH, added: testosterone substrate; relative to: negative control): 101%
O=C1C2CC3CC1CC(C(=O)N1CCN(c4ccc([N+](=O)[O-])c5ncccc45)CC1)(C3)C2 — revertant fold increase (Escherichia coli; Ames test; WP2 uvrA pKM101; 0.78 µg/well, without S9; relative to: vehicle): 1
O=C(Nc1cnccc1-c1ccc([18F])nc1)c1ccnc(NC(=O)C2CC2)c1 — SUV (GSK-3β imaging tracer; FVB/NJ mice, both sexes, brain; intravenous, 3 min, early frames, no P-gp inhibitor): 0.29 ± 0.14
Clc1cc2nc(c1)CNCc1cc(Cl)cc(n1)CNC2.[Cu+2] — half-wave potential (Cu(II)/Cu(I) redox couple; cyclic voltammetry; DMF; added: TBAP; relative to: Fc/Fc+): -652 mV
O=C1NC2(CC2)COc2ncc(F)cc2[C@H]2COCCN2c2ccn3ncc1c3n2 — revertant colonies (Salmonella typhimurium; Ames test; TA102; 1500 µg/plate, 48 h, added: rat liver S9): 414 ± 19 revertants/plate
C=C(NC(=O)c1csc(-c2nc3c(cc2O)-c2nc(cs2)C(=O)NC(C(C)O)C(=O)NC(=C(C)OC)c2nc(cs2)C(=O)NC2c4nc(cs4)C(=O)NC(COC(=O)c4c5c6c(cccc6n4O)COC(=O)C(OC4CC(C)(O)C(N(C)C)C(C)O4)C2OC5)c2nc-3cs2)n1)C(N)=O (stereo not shown) — clearance (cynomolgus monkey, female, plasma; intravenous infusion, 1 mg/kg single dose): 2.14 mL/min/kg
COc1cc2nc(c1)CNCc1cc(OC)cc(n1)CNC2.[Cu+2] — cathodic peak potential (Cu(II)/Cu(I) redox couple; cyclic voltammetry; DMF; added: TBAP; relative to: Fc/Fc+): -861 mV
CC(C)(C)NCC(SS(=O)(=O)O)c1ccccc1 (stereo not shown) — body weight decrease (Schistosoma mansoni; perfusion day 44; infected Swiss Webster mice; 600 mg/kg single dose, dosed day 15 post-infection; relative to: vehicle control): 8%
N#C[C@@H]1CC(F)(F)CN1C(=O)CNC(=O)c1ccnc2c(NC(=O)CCOCCOCCOCCOCCOCCOCCNC(=O)[C@H](CCCCNC(=O)CN3CCN(CC(=O)[O-])CCN(CC(=O)[O-])CCN(CC(=O)[O-])CC3)NC(=O)CCCc3ccc(I)cc3)cccc12.[177Lu+3] — tracer uptake (U-87 MG tumour model; host not given, liver; 48 h, tumour-bearing): 0.94 %ID/g

Repeated from above:
Clc1cc2nc(c1)CNCc1cc(Cl)cc(n1)CNC2.[Cu+2] — half-wave potential (Cu(II)/Cu(I) redox couple; cyclic voltammetry; DMF; added: TBAP; relative to: Fc/Fc+): -652 mV
O=C1NC2(CC2)COc2ncc(F)cc2[C@H]2COCCN2c2ccn3ncc1c3n2 — revertant colonies (Salmonella typhimurium; Ames test; TA102; 1500 µg/plate, 48 h, added: rat liver S9): 414 ± 19 revertants/plate
